Results from different studies.
Parts stem from different laboratories: compare values within a part only.
Chain of UniProt P80192 (whole entry, looked up): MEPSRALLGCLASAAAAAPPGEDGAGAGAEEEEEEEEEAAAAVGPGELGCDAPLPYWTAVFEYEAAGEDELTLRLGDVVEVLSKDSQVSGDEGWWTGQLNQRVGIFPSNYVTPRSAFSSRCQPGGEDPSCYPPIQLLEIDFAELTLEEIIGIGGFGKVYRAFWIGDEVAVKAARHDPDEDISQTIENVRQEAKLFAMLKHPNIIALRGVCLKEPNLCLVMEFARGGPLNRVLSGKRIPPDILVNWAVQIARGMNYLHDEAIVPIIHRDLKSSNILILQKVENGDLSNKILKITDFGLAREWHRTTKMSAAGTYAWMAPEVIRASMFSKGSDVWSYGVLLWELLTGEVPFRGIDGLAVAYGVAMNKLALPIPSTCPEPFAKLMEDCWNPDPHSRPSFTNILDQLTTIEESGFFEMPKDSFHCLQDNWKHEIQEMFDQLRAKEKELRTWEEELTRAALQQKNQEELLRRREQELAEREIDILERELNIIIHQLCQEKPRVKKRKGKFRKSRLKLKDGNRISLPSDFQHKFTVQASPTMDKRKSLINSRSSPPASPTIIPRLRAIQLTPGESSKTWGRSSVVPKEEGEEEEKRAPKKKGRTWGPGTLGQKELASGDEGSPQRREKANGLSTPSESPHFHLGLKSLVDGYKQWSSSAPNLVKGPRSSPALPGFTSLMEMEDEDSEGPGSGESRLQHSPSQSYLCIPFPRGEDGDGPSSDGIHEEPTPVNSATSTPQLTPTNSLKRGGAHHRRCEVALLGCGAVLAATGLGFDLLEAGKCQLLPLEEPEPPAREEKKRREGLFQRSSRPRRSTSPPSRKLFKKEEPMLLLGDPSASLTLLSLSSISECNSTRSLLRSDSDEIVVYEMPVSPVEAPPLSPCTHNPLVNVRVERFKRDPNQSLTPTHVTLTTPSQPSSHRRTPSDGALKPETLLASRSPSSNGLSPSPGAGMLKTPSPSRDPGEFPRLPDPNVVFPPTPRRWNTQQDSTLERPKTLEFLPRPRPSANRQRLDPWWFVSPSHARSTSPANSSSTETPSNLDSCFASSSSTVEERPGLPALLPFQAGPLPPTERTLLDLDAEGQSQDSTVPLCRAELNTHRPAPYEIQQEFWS
Chain of UniProt P11802 (whole entry, looked up): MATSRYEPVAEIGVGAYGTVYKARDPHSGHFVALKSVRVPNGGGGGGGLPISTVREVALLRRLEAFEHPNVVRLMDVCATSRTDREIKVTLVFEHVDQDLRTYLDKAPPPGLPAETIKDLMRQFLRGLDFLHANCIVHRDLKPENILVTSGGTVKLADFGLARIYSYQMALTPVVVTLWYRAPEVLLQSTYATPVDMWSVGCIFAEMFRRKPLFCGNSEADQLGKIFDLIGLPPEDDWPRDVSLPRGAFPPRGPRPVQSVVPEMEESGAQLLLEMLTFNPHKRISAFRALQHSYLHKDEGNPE
Chain of UniProt O15264 (whole entry, looked up): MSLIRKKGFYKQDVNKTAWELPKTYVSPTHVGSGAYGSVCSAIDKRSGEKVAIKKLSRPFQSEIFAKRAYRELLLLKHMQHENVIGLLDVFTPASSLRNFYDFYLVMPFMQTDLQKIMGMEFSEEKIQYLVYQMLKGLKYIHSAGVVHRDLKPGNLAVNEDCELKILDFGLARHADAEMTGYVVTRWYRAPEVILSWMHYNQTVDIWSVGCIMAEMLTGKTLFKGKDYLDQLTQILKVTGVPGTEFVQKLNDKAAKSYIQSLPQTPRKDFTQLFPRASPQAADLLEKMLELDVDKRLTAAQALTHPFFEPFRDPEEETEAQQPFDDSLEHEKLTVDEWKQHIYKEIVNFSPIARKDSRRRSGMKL
Chain of UniProt P06239 (whole entry, looked up): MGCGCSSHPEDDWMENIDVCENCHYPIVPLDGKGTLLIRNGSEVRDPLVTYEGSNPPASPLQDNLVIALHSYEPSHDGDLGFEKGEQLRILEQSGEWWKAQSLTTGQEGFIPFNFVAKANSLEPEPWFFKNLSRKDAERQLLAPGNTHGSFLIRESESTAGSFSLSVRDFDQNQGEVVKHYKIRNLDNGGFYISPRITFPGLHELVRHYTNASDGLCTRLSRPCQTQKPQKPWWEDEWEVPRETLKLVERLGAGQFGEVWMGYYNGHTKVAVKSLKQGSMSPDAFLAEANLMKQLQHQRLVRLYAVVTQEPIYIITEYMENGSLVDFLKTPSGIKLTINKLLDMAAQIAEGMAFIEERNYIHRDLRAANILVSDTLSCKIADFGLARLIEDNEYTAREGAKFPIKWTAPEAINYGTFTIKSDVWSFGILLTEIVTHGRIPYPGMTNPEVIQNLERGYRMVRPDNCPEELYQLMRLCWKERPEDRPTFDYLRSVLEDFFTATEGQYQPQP
Chain of UniProt P32298 (whole entry, looked up): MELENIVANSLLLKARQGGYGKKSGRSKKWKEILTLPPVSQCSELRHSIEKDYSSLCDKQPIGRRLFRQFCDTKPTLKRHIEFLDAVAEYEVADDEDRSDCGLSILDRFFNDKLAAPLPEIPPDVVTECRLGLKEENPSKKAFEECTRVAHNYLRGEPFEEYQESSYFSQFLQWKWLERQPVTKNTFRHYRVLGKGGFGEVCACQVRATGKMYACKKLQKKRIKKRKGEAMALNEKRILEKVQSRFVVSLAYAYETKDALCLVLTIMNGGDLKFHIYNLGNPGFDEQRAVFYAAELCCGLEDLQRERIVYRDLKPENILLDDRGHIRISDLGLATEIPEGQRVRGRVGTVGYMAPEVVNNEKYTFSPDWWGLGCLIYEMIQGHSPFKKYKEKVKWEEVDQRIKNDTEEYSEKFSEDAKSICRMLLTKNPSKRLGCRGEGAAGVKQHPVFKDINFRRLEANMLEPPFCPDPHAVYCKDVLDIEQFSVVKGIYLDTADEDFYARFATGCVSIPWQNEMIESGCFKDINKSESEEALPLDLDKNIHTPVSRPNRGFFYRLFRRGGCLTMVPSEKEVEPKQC

Set 1 — effect on: enzyme activity; mode: inhibitor; tested at: 0.5 µM; baseline: control
Target: Myosin light chain kinase, smooth muscle (MYLK, Homo sapiens, UniProt Q15746)
Chain of UniProt Q15746 (whole entry, looked up): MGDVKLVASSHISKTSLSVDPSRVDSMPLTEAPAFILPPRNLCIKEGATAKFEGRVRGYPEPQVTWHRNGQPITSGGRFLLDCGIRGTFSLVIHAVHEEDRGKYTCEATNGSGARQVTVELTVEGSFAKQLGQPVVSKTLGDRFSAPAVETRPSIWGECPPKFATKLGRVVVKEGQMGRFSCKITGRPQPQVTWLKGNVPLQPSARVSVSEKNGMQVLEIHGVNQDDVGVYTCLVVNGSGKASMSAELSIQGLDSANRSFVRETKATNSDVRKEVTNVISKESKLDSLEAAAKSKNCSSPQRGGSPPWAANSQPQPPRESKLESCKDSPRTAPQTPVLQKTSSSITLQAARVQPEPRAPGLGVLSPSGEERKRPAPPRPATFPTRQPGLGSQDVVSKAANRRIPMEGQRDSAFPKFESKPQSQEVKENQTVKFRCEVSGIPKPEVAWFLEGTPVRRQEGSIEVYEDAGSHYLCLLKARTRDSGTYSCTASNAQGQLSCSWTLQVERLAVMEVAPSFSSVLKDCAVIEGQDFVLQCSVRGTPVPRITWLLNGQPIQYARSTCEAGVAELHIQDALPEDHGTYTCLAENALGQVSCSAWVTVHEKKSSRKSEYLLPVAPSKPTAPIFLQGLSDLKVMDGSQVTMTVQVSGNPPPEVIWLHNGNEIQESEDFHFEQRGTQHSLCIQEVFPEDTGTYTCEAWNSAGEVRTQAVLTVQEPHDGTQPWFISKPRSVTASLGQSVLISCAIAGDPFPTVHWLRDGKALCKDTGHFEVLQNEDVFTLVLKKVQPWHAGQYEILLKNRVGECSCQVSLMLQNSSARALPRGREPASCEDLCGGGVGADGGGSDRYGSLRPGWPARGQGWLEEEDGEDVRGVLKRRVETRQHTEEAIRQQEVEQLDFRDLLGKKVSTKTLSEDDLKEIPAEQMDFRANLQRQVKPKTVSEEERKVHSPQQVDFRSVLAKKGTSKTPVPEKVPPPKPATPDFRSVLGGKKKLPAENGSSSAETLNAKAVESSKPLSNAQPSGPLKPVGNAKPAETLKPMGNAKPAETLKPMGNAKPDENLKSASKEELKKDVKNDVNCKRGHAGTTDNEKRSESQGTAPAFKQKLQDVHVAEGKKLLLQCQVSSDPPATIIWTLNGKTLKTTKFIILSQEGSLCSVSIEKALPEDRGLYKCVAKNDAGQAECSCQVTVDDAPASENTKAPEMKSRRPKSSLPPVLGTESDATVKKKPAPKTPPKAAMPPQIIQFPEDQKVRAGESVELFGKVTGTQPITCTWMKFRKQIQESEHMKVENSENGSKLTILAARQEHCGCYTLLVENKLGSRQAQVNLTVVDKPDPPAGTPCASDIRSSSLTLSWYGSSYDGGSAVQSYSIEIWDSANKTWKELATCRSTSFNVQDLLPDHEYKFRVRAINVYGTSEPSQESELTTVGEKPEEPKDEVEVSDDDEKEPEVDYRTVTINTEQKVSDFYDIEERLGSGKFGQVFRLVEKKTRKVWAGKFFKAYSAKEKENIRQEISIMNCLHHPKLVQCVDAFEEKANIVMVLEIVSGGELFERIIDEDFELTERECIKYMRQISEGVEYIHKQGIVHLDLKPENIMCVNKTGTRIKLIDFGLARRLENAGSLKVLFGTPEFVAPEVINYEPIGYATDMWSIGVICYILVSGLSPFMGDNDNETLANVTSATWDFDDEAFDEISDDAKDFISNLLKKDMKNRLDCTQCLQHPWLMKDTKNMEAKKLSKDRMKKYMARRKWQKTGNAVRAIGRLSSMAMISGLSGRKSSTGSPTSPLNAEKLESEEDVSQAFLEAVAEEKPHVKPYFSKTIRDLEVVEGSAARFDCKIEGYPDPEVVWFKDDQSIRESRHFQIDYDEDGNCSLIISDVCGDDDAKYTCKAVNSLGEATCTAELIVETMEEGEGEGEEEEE
SMILES | remaining activity
O=Nc1c(-c2c(O)[nH]c3ccccc23)[nH]c2ccccc12 | 65%
O=C1NC(=O)/C(=C/c2ccc3c(c2)OC(F)(F)O3)S1 | 99.4%
O=C(c1ccccc1)c1ccc(N2CCOCC2)cc1O | 91.8%
FC(F)(F)c1ccc(/C=C/c2nc(COc3ccc(CCCCn4ccnn4)cc3)co2)cc1 | 94.8%
c1cc(-c2cnn3cc(-c4ccc(OCCN5CCCCC5)cc4)cnc23)ccn1 | 91.6%
NC(=O)c1cccc(-c2cc(Nc3ccc(OC(F)(F)F)cc3)ncn2)c1 | 91.9%
NC(=O)c1ccc(-c2nc(-c3ccc4c(c3)OCCO4)c(-c3ccccn3)[nH]2)cc1 | 99.2%
CC(C)N(CCC(=O)c1ccc2ccccc2c1)Cc1ccccc1 | 95.6%
COc1cc2c(N3CCN(C(=O)Nc4ccc(OC(C)C)cc4)CC3)ncnc2cc1OCCCN1CCCCC1 | 96.6%

Set 2 — method: phase 2a trial; species: idiopathic pulmonary fibrosis patients
Structure (SMILES): CC(C)n1cnc(-c2ccc(F)cc2)c1-c1ncc(C(=O)Nc2ccc(N3CCN(C)CC3)cc2)[nH]1
dose | setting | patients with respiratory failure [%]
all arms | grade 5 emergent event | 0
60 mg once daily | grade 4 emergent event | 0
30 mg once daily | grade 2 emergent event | 0
30 mg once daily | grade 5 emergent event | 0
30 mg once daily | grade 4 emergent event | 0

Set 3 — effect on: cell-free assay; method: competition with immobilised ligand; tested at: 1 µM
SMILES: Cc1c(NC(=O)c2cc(C(N)=O)nc3cc(F)ccc23)c(C(F)(F)F)nn1Cc1ccc(C(C)(C)C)cc1
target | remaining binding
Ephrin type-A receptor 3 (EPHA3, Homo sapiens, UniProt P29320) | 98%
Ribosomal protein S6 kinase beta-1 (RPS6KB1, Homo sapiens, UniProt P23443) | 100%
Mitogen-activated protein kinase kinase kinase 9 (MAP3K9, Homo sapiens, UniProt P80192) | 100%
Tyrosine-protein kinase Lck (LCK, Homo sapiens, UniProt P06239) | 100%
Ribosomal protein S6 kinase alpha-1, N-terminal kinase domain (RPS6KA1, Homo sapiens, UniProt Q15418) | 100%
Serine/threonine-protein kinase ULK3 (ULK3, Homo sapiens, UniProt Q6PHR2) | 97%
G protein-coupled receptor kinase 3 (GRK3, Homo sapiens, UniProt P35626) | 100%
Cyclin-dependent kinase 4, with cyclin D1 (CDK4, Homo sapiens, UniProt P11802) | 100%
Mitogen-activated protein kinase 13 (MAPK13, Homo sapiens, UniProt O15264) | 49%
Serine/threonine-protein kinase MARK2 (MARK2, Homo sapiens, UniProt Q7KZI7) | 100%
G protein-coupled receptor kinase 4 (GRK4, Homo sapiens, UniProt P32298) | 100%
Mitogen-activated protein kinase 14 (MAPK14, Homo sapiens, UniProt Q16539) | 100%
Serine/threonine-protein kinase 33 (STK33, Homo sapiens, UniProt Q9BYT3) | 96%
Serine/threonine-protein kinase RIO2 (RIOK2, Homo sapiens, UniProt Q9BVS4) | 76%
Misshapen-like kinase 1 (MINK1, Homo sapiens, UniProt Q8N4C8) | 90%
Calcium/calmodulin-dependent protein kinase kinase 1 (CAMKK1, Homo sapiens, UniProt Q8N5S9) | 98%

Set 4 — cell line: Huh-7; tested at: 10 µM; time: 24 h
Structure (SMILES) | viability [%]
CC(C)NCC(O)COc1cccc2[nH]ccc12 (centres unmarked) | 100
COc1ccccc1OCCNCC(O)COc1cccc2[nH]c3ccccc3c12 (centres unmarked) | 94.7
COc1ccc(CN(CCN(C)C)c2ncccn2)cc1 | 102
CC1(C)S[C@@H]2[C@H](NC(=O)COc3ccccc3)C(=O)N2[C@H]1C(=O)O | 100
CN1CCN(C(c2ccccc2)c2ccc(Cl)cc2)CC1 (centres unmarked) | 99.4
CCC(=O)OCC(=O)[C@@]1(OC(=O)CC)[C@@H](C)C[C@H]2[C@@H]3CCC4=CC(=O)C=C[C@]4(C)[C@@]3(F)[C@@H](O)C[C@@]21C | 98.8
CC(COc1ccccc1)NC(C)C(O)c1ccc(O)cc1 (centres unmarked) | 98.5
COCCCOc1cc(C[C@@H](C[C@H](N)[C@@H](O)C[C@H](C(=O)NCC(C)(C)C(N)=O)C(C)C)C(C)C)ccc1OC | 101
